Measurements pooled from the literature.
Compare with care: the assays were run in different laboratories.

`C[C@@H](Nc1cc(F)cc(F)c1)c1cc(C(=O)N(C)C)cc2c(=O)cc(N3CCOCC3)oc12` — result for “patients discontinuing for AE”: 0% (item: Rash; advanced solid tumour patients; oral, dose not given, dose expansion).
Under “patients with adverse event”, `COc1cc(Nc2ncc3c(n2)-c2ccc(Cl)cc2C(c2c(F)cccc2OC)=NC3)ccc1C(=O)O` is recorded as 13% (item: weight loss, grade 2; cancer patients, phase 1/2; oral, dose not given, added: pembrolizumab).
With `CCOc1c([C@H](C)n2nc(C)c3c(N)ncnc32)cc(Cl)c(F)c1[C@@H]1CNC(=O)C1` the patients was 2.9% (item: QTcF change above 60 ms; previously treated B-cell malignancy; oral, 20 mg once daily, baseline QTcF ≤450 ms; relative to: baseline).
Under “patients with adverse event”, `CNC(=O)c1ccc(-c2cnc3ncc(Cc4ccc5ncccc5c4)n3n2)cc1F` is recorded as 3% (item: Pruritus; cancer patients; oral, dose not given, dose escalation, grade 3-4).
Under “patients with Dyspepsia”, `Cc1cc(NC2CCN(C(=O)OC3CCN(C(=O)/C=C/CN(C)C)C3)CC2)n2ncc(C(C)C)c2n1` (centres unmarked) is recorded as 0% (patients with advanced solid tumours; dose not given, QD arm, grade 3 or higher).
`C[C@@H](c1ccc2nccn2c1)n1nnc2ncc(-c3cnn(C)c3)nc21` — result for “patients with treatment-related AEs”: 0% (item: Pneumonitis grade ≥3; EGFR-mutant MET-altered NSCLC; oral, dose not given, study).
`O=C(Nc1nc2cccc(-c3ccc(CN4CCS(=O)(=O)CC4)cc3)n2n1)C1CC1`: “patients with adverse event” 0% (item: anaemia; rheumatoid arthritis patients; oral, 200 mg once daily, 4 weeks, any relatedness).
Under “patients with drug-related AE”, `COc1ccc([C@@H](O)c2cc(-c3ncnc4cc(N5CCOCC5)ccc34)c(F)cc2Cl)nn1` is recorded as 26% (item: Anemia; locally advanced rectal cancer patients; dose not given, all dose groups, added: capecitabine plus radiotherapy).

Excerpt of the above:
With `CCOc1c([C@H](C)n2nc(C)c3c(N)ncnc32)cc(Cl)c(F)c1[C@@H]1CNC(=O)C1` the patients was 2.9% (item: QTcF change above 60 ms; previously treated B-cell malignancy; oral, 20 mg once daily, baseline QTcF ≤450 ms; relative to: baseline).
